# Measured values of several laboratories.
# A part holds a random share of what one study measured.

# Study 1
# Target: Centromere-binding protein 1, full length, His-tagged (CBF1, Saccharomyces cerevisiae, UniProt P17106, residues 1-351)
# Sequence of UniProt P17106 (whole entry, looked up): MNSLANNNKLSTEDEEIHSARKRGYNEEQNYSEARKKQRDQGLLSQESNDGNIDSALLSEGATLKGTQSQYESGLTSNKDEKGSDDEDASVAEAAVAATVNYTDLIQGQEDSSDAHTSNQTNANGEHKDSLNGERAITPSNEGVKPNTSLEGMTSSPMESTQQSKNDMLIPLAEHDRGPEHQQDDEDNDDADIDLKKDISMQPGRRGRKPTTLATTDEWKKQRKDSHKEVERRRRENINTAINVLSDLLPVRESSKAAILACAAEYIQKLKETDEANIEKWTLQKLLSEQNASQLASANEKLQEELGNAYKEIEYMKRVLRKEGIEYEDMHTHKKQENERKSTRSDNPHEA
# Technique: competition protein-binding microarray
# Molecule type: double-stranded DNA, one strand shown
# Matrix: in vitro
# Concentration: 2 µM
# Setting: whole 60-bp probe, lowest competitor level
# Together with: Pho4 competitor, 0.05 µM
# Direction: higher = stronger binding
Sequence,fluorescence intensity [a.u.]
CTAACGAAGGTTTGGGTTGTGGGTGACAAGCCAAGTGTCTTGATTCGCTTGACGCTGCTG,60.2
ATTACTTGTTGCCATCACGATACTGGCATCCGATAGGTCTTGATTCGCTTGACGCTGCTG,109
TGCGCAACAACTTGTGACGTGGGTGTATGTCTAGAAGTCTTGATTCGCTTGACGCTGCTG,74.9
CGGGGTTAAGTTTTTCACGTGCTTTGCTTGCAGCAGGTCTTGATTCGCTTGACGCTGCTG,1160
GGTTCTGTTTCGATGCACGCTAGATTACTCGAACCAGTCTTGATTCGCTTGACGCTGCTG,82.1

# Study 2
# Target: Histone acetyltransferase KAT6A, winged helix 1, GST fusion (KAT6A, Homo sapiens, UniProt Q92794, residues 1-85)
# Technique: protein binding microarray
# Molecule type: double-stranded DNA, one strand shown
# Matrix: in vitro
# Concentration: not given
# Setting: 8-mer, flanks averaged, mean of 2 arrays, mostly near background
# Baseline: not given
# Direction: higher = stronger binding
# Construct (chain): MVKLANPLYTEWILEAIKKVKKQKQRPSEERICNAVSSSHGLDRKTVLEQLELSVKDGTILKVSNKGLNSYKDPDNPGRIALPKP
Sequence,E-score
CCTCGGTC,-0.117
AGGCTCAT,-0.171
ATGTTGCC,0.0568
AACACCCA,-0.239
CCGGTTGC,0.257
ACCCAACG,-0.194
GATTACCC,-0.0269
AACTCTAA,-0.16
CAACAGGA,-0.268
ACTATTCG,-0.155
CCACATTA,-0.212

# Study 3
# Target: Fragile X messenger ribonucleoprotein 1, C-terminal low-complexity region (Fmr1, Mus musculus, UniProt P35922)
# Technique: RNA Bind-n-Seq
# Molecule type: RNA
# Matrix: in vitro
# Concentration: 200 nM
# Setting: whole 134-nt RNA, ends assumed
# Together with: 150 mM LiCl
# Baseline: input library
# Direction: higher = stronger binding
# Library: 7-deaza-guanosine replaces G
Sequence,log2 enrichment
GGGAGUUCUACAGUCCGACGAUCUCAAGUCCUGUGCUACACAUCGUAUGUACCGAAUCGGGAGGGUGGGUUUUUGGGAAAGUAUUAUGUUACGCCGUUCGGAUCUGCACUUCCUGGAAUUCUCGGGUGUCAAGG,-1.44
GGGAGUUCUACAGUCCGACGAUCGUCCUGUGCUACACAUCGUAUGUACCGAAUCAAAUUUAAAUUUUUUUAAACCCCCAAAAAAGUAUUAUGUUACGCCGUUCGGAUCUGCACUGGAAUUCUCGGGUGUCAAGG,-0.0506
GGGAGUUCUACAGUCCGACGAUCCACAGACAACACGCACCCACACAGACACAGAGGGAAGGGGUUGGGAUGGGGACAGGGUGCACAGCAGGGCGGGGUAGGACCCCAAACCCUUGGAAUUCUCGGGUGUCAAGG,-1.26
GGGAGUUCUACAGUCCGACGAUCUGGCCCUGGUGGCAUGCGGGGAGGAAGAGGUGGCCUCAUGGAUCGUGGUGGUCCCGGUGGAAUGUUCAGAGGUGGCUGUGGUGGAGACAGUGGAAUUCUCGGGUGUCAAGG,0.136
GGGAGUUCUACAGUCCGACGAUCUGCUCUCCGUGCCACAUGCGCCCGCAGGUUACGCCAAGGAGGCCCUGAAUCUGGCGCAGAUGCAGGAGCAGACGCUGCAGUUGGAGCAACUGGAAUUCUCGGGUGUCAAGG,-4.18
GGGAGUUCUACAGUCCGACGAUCGUCCUGUGCUACACAUCGUAUGUACCGAAUCGGGGAAAAAGGGGUUUUUGGGGUGGGGAAAGUAUUAUGUUACGCCGUUCGGAUCUGCACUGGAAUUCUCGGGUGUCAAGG,-1.22
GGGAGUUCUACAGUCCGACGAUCACCAUGCAGGUGGGCAUCUUUGGGAAGUGGGGCAAGGCGGGGAUAGGGAGGGGGGUAACACUUUGGGAACAGGUGGUCCCAGGUCGUUUCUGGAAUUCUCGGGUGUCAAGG,1.14
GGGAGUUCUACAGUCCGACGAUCUGGGAGGUGGAUUUUGUUUAUUUUUUCAGCUCAUUUCCAGGGGUGGGAAUUUUUUUUUAAUAUGUGUCAUGAAUAAAGUUGUUUUUGAAAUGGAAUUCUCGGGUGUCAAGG,-0.163

# Other studies, line by line
Substance,target,assay,test system,setting,how to read,measurement,value
"PhoQ, residues 284 288 289 292 302 303 ALASRC","PhoP, residues 12 14 15 18 19 NMSSL (Escherichia coli, UniProt P23836)","Sort-seq, measured: YFP reporter",E. coli,"PhoQ-PhoP variant library, together with: 10 µM Mg2+","baseline: high Mg2+ state, higher = stronger signaling",fold induction,6.41

# Some of these lines once more (study 2):
Sequence,E-score
CAACAGGA,-0.268
